Assay results pooled from the literature.
Protocols differ between the studies behind these lines. “And” joins repeats or separate records; there may be more than shown. ± marks the error that the study gave.

SMILES = N#CC[C@H](C1CCCC1)n1cc(-c2ncnc3[nH]ccc23)cn1; test system = human; conditions = topical, 1.5% twice daily; endpoint = bioavailability; value = 6.22%
SMILES = Cn1c(-c2ccc(C(N)=O)cc2F)nnc1C(C)(C)Oc1c(F)cc(Cl)cc1F; test system = young Japanese subjects, plasma; conditions = oral, 50 mg single dose, day 1; endpoint = AUC(0-inf) mean; value = 7880 ng·h/mL
SMILES = Cc1cccc(C)c1OCC(=O)N[C@@H](Cc1ccccc1)[C@@H](O)C[C@H](Cc1ccccc1)NC(=O)[C@H](C(C)C)N1CCCNC1=O; test = median; test system = HIV patients without HCV, plasma; conditions = oral, dose not given, lopinavir/ritonavir 400/100 mg twice daily; endpoint = AUC(0-12 h); value = 110000 ng·h/mL
SMILES = CCCOc1ccc([C@H]2CNC(=O)N2c2ccc3[nH]cnc3c2)cc1; test system = human volunteers fasted, plasma; conditions = oral tablet, 1800 mg single dose, day 1, geometric mean; endpoint = AUC(0-12h); value = 30500 ng·h/mL
SMILES = CCC(CC)COC(=O)[C@H](C)N[P@](=O)(OC[C@H]1O[C@@](C#N)(c2ccc3c(N)ncnn23)[C@H](O)[C@@H]1O)Oc1ccccc1; test system = 20% w/w aqueous SBECD; conditions = 24 h, pH 1.9, 25 °C; endpoint = equilibrium solubility; value = 9730 µg/mL
SMILES = CC(C)NC[C@@H](C(=O)N1CCN(c2ncnc3c2[C@H](C)C[C@H]3O)CC1)c1ccc(Cl)cc1; test system = human, matched normal hepatic function (Child-Pugh), plasma; conditions = oral, 100 mg single, reference geometric mean, vs Mild; endpoint = Cmax; value = 53.7 ng/mL
SMILES = CCCCCCCCCCCCCNCC(=O)N(CC(=O)N(CCCCN)CC(=O)N(CCN)CC(=O)N(CC(N)=O)CC1CCCCC1)CC1CCCCC1; test = preparative RP-HPLC C18; test system = water to acetonitrile gradient; conditions = 0.05% TFA in eluent; how to read = higher = more hydrophobic; endpoint = acetonitrile at elution; value = 71.4%
SMILES = COc1c(C)c2c(c(O)c1C/C=C(\C)CCC(=O)O)C(=O)OC2; test = equilibrium dialysis; test system = dogs, albumin H1 allele, plasma; conditions = 12.5 µM; endpoint = unbound fraction; value = 5.17 ± 0.83%
SMILES = COc1ccc2c(c1OCc1ccccc1)C[C@@H](C(=O)O)N(C(=O)C(c1ccccc1)c1ccccc1)C2; test system = male Sprague-Dawley rat, plasma; conditions = intravenous, 1 mg/kg; endpoint = Vd; value = 0.74 L/kg
SMILES = Cc1cc(C)c2c(c1)[C@@H](N(Cc1cc(C(F)(F)F)cc(C(F)(F)F)c1)c1nnn(C)n1)CCCN2C[C@H]1CC[C@H](C(=O)O)CC1; test system = human, plasma; conditions = oral, 300 mg once daily, steady state, geometric mean; endpoint = Vss/F; value = 1350 L
SMILES = N#C[C@@H]1CCCN1C(=O)CNC12CC3CC(CC(O)(C3)C1)C2; test system = male ICR mouse, plasma; conditions = oral, 3 mg/kg, 24 h; endpoint = AUC; value = 2970 ng·h/mL
SMILES = Cc1ccc(NC(=O)c2ccc(CN3CCN(C)CC3)cc2)cc1Nc1nccc(-c2cncc(-c3oncc3C)c2)n1; test system = healthy volunteers, plasma; conditions = oral, 25.0 mg once daily, day 1, 7-day dosing, mean; endpoint = Tmax; value = 5 h
SMILES = CCN(CC)CCNC(=O)c1c(C)[nH]c(/C=C2\C(=O)Nc3ccc(F)cc32)c1C; test system = human, plasma; conditions = oral, 50 mg daily, added: everolimus 30 mg weekly; endpoint = Cmin; value = 77 ng/mL
SMILES = Cc1nc2cccc(OCC(C)(C)C(=O)NC(C)C)c2c(N)c1C(=O)O; test system = female Sprague-Dawley rat, plasma; conditions = oral food admix, 60 mg/kg/day, day 7, 90-day dietary study; endpoint = AUC(0-24 h); value = 566 ng·h/mL
SMILES = C[C@]12CC[C@@H]3c4ccc(O)cc4CC[C@H]3[C@@H]1C[C@@H](O)[C@@H]2O; test = GC-MS; test system = breast cancer women on NSAI, serum; conditions = vaginal, 0.03 mg, 8 h, day 0; endpoint = maximum serum concentration; value = 0 ng/mL
SMILES = O=C1N=C(N2CCOCC2)CN1c1ccc(Cl)cc1; test system = beagle dog, female, plasma; conditions = oral, 30 mg/kg, tablets, fed; endpoint = AUC(0-inf); value = 74300 ng·h/mL
SMILES = Cn1cc(-c2ccc3nnc(Sc4ccc5ncccc5c4)n3n2)cn1; test system = CD-1 mouse liver S9, male; conditions = 1 µM, added: hydralazine 50 µM, no NADPH; endpoint = CLint; value = 16.5 ± 4.03 mL/min/kg
SMILES = O=C(c1cc(Cl)c(O)c(Cl)c1)N1CS(=O)(=O)c2ccccc21; test system = human, healthy Chinese adults; conditions = oral, 1 mg single dose; how to read = baseline: subjects; endpoint = drug-related adverse events; value = 25%
SMILES = CC(=O)N[C@H](CSSC[C@H](N)C(=O)O)C(=O)N[C@H](C)C(=O)N[C@H](CCCNC(=N)N)C(=O)N[C@H](CCCNC(=N)N)C(=O)N[C@H](CCCNC(=N)N)C(=O)N[C@H](C)C(=O)N[C@H](CCCNC(=N)N)C(N)=O; test system = human whole blood; conditions = 37 °C, to biotransformed products; endpoint = disulfide exchange rate constant; value = 0.00525 min⁻¹
SMILES = CS(=O)(=O)OC[C@H](O)[C@@H]1CO1; test system = Wistar rat, female, red blood cells and plasma; conditions = intraperitoneal, 500 mg/kg treosulfan, 4 h; endpoint = RBC/plasma partition coefficient; value = 0.6 and 0.67 and 0.56
SMILES = FC(F)(F)c1cccc(CNC2CCN(CCc3ccccc3)CC2)c1; test system = 0.1 M sodium acetate with 0.01% Triton X-100; conditions = pH 5.5; endpoint = maximum solubility; value = 100 µM
SMILES = CN(C)C(=O)c1cc2cnc(Nc3ccc(N4CCNCC4)cn3)nc2n1C1CCCC1; test system = patients Rb+ solid tumours; conditions = oral, 600 mg continuous, treatment-related adverse events; endpoint = QT prolongation all grades; value = 0%
SMILES = O=C(O)C[C@H](O)C[C@H](O)/C=C/c1c(C2CC2)nc2ccccc2c1-c1ccc(F)cc1; test system = male Sprague-Dawley rat (wild type); conditions = oral, 5 mg/kg; endpoint = Vd/F; value = 10.9 ± 3.36 L/kg
SMILES = CN(C)C(=O)c1cc2cnc(Nc3ccc(N4CCNCC4)cn3)nc2n1C1CCCC1; test system = human, plasma; conditions = oral, 600 mg daily for 14 days, day of surgery; endpoint = unbound plasma concentration; value = 490 nM
SMILES = CC(C)[C@H](NC(=O)[C@@H]1CCCN1C(=O)[C@H](CCCNC(=N)N)NC(=O)[C@H](CS)NC(=O)[C@H](Cc1c[nH]c2ccccc12)NC(=O)[C@H](CCCNC(=N)N)NC(=O)[C@@H](Cc1ccccc1)NC(=O)[C@H](Cc1c[nH]cn1)NC(=O)[C@H](CCC(=O)O)NC(=O)[C@H](CS)NC(=O)[C@H](CS)NC(=O)[C@H](CCCCN)NC(=O)[C@@H]1CC(=O)N[C@@H](CCCNC(=N)N)C(=O)N[C@@H](C(C)C)C(=O)N[C@@H](CC(=O)O)C(=O)N[C@H](Cc2ccc(O)cc2)C(=O)N1)C(N)=O [technetium-99m labelled]; test system = C57 mouse, female, B16/F1 melanoma, blood; conditions = intravenous, 2 h, added: NDP-MSH 10 µg co-injected; endpoint = tissue uptake; value = 0.55 ± 0.35 %ID/g
SMILES = O=C(NC[C@H]1CN(c2ccc(N3CCOCC3=O)cc2)C(=O)O1)c1ccc(Cl)s1; test system = Sprague-Dawley rat, male, plasma; conditions = oral, 10 mg/kg; endpoint = MRT(0-t); value = 5.97 ± 0.34 h
SMILES = O=C(O)/C=C/c1ccc(O)c(O)c1; test = UPLC-MS/MS; test system = Wistar rat, microcirculation dysfunction model, plasma; conditions = oral, 100 mg/kg Salvia miltiorrhiza stem-leaf extract FT; endpoint = MRT(0-t); value = 8.58 ± 1.97 h
SMILES = Cc1c2c(n(-c3ccc(F)cc3Cl)c1-c1ccc(OS(=O)(=O)CCC(F)(F)F)cc1)CCN(N1CCCCC1)C2=O; test = LC-MS/MS; test system = cynomolgus monkey 4, plasma; conditions = intravenous infusion, 0.06 mg/kg, 90 min, total concentration mid-point of PET; endpoint = plasma concentration; value = 20 nM
SMILES = O=c1[nH]cc(F)c(=O)[nH]1; test system = patients, plasma; conditions = intravenous, 2400 mg/m2 maintenance, cycle 1, once-daily cohort, no vorinostat; endpoint = Css; value = 439 ± 172 ng/mL
SMILES = CN[C@@H]1[C@H](O)[C@H](NC)[C@H]2O[C@]3(O)[C@H](O[C@@H]2[C@H]1O)O[C@H](C)C[C@H]3NC(=O)Cc1ccccn1; test = glutathione conjugation; test system = rat liver S9; conditions = 100 µM, 2 h, pH 7.4, added: glutathione 0.2 mM; endpoint = parent remaining; value = 99.8%
SMILES = CS(=O)(=O)n1cc2c(n1)CN([C@H]1CO[C@H](c3cc(F)ccc3F)[C@@H](N)C1)C2; test system = healthy male human, plasma; conditions = oral, 25 mg single, fasted, geometric mean; endpoint = concentration at 168 h; value = 20.6 nM
SMILES = CCCS(=O)(=O)Nc1ccc(F)c(C(=O)c2c[nH]c3ncc(-c4ccc(Cl)cc4)cc23)c1F; test = rapid equilibrium dialysis; test system = 100% human plasma; conditions = 5 µM, 4 h; endpoint = unbound fraction; value = 1.02e-05 ± 3.8e-06
SMILES = C=CC(N)CCC(=O)O (stereo not shown); test system = male Sprague-Dawley rat, plasma; conditions = oral, 1.0 mg/kg, formulation 5, added: Sar 200 mg/kg; endpoint = Cmax; value = 920 ± 31 ng/mL
SMILES = CNc1nc(Nc2ccc(-n3cnc(C)n3)c(OC)c2)nc2c1CC[C@H]2c1ccc(F)cc1; test system = human, plasma; conditions = oral, 100 mg, multiple doses, once daily; endpoint = AUC(0-t); value = 9080 ng·h/mL
SMILES = N=C(N)NCCC[C@H](NCC(=O)[C@@H](O)[C@H](O)[C@H](O)CO)C(=O)O; test system = C57BL/6J mouse, plasma; conditions = intraperitoneal, 40 mM, 2.5 µL/g, extrapolated to 0 min; endpoint = C0; value = 292000 nM
SMILES = CC1(C)C2CC[C@@]1(C)C(=O)/C2=C/c1ccoc1; test system = human red blood cells; conditions = 10 to 300 µg/mL, 30 min; endpoint = maximum hemolysis; value = < 14%
SMILES = CCCC[N+]1(CC(=O)OC2CCCCCCCCCCC2)CCCCC1.[I-]; test system = phosphate buffer with 2% DMSO; conditions = 90 min, pH 7.4, theoretical maximum 200 µM; endpoint = aqueous solubility; value = 186 µM
SMILES = O=C1Nc2ccccc2C(O)CCc2ccccc21 (stereo not shown); test = nephelometry; test system = aqueous buffer; conditions = 30 min, pH 6.5; endpoint = kinetic solubility; value = > 100 µg/mL
SMILES = CCCCC(=O)N(Cc1ccc(-c2ccccc2-c2nnn[nH]2)cc1)[C@H](C(=O)O)C(C)C; test system = male human, plasma; conditions = oral, dose not given, day 8, adjusted geometric mean, added: sildenafil; endpoint = AUCtau at steady state; value = 21700 ng·h/mL
SMILES = O=C(c1ccc(F)c(F)c1Nc1ccc(I)cc1F)N1CC(O)([C@@H]2CCCCN2)C1; test system = paediatric patients, expansion cohort, plasma; conditions = oral, 1.0 mg/kg, mean; endpoint = AUC(0-24) at steady state; value = 1860 ng·h/mL

Some of these lines once more:
SMILES = CCCC[N+]1(CC(=O)OC2CCCCCCCCCCC2)CCCCC1.[I-]; test system = phosphate buffer with 2% DMSO; conditions = 90 min, pH 7.4, theoretical maximum 200 µM; endpoint = aqueous solubility; value = 186 µM
SMILES = O=C(NC[C@H]1CN(c2ccc(N3CCOCC3=O)cc2)C(=O)O1)c1ccc(Cl)s1; test system = Sprague-Dawley rat, male, plasma; conditions = oral, 10 mg/kg; endpoint = MRT(0-t); value = 5.97 ± 0.34 h
SMILES = CNc1nc(Nc2ccc(-n3cnc(C)n3)c(OC)c2)nc2c1CC[C@H]2c1ccc(F)cc1; test system = human, plasma; conditions = oral, 100 mg, multiple doses, once daily; endpoint = AUC(0-t); value = 9080 ng·h/mL
SMILES = Cn1c(-c2ccc(C(N)=O)cc2F)nnc1C(C)(C)Oc1c(F)cc(Cl)cc1F; test system = young Japanese subjects, plasma; conditions = oral, 50 mg single dose, day 1; endpoint = AUC(0-inf) mean; value = 7880 ng·h/mL
SMILES = CS(=O)(=O)n1cc2c(n1)CN([C@H]1CO[C@H](c3cc(F)ccc3F)[C@@H](N)C1)C2; test system = healthy male human, plasma; conditions = oral, 25 mg single, fasted, geometric mean; endpoint = concentration at 168 h; value = 20.6 nM
SMILES = CN(C)C(=O)c1cc2cnc(Nc3ccc(N4CCNCC4)cn3)nc2n1C1CCCC1; test system = patients Rb+ solid tumours; conditions = oral, 600 mg continuous, treatment-related adverse events; endpoint = QT prolongation all grades; value = 0%
